Results pooled from the literature.
Lines come from different studies, so protocols differ.
B1: human PABP3; sequence looked up; chain MNPSTPSYPTASLYVGDLHPDVTEAMLYEKFSPAGPILSIRICRDLITSGSSNYAYVNFQHTKDAEHALDTMNFDVIKGKPVRIMWSQRDPSLRKSGVGNIFVKNLDKSINNKALYDTVSAFGNILSCNVVCDENGSKGYGFVHFETHEAAERAIKKMNGMLLNGRKVFVGQFKSRKEREAELGARAKEFPNVYIKNFGEDMDDERLKDLFGKFGPALSVKVMTDESGKSKGFGFVSFERHEDAQKAVDEMNGKELNGKQIYVGRAQKKVERQTELKRTFEQMKQDRITRYQVVNLYVKNLDDGIDDERLRKAFSPFGTITSAKVMMEGGRSKGFGFVCFSSPEEATKAVTEMNGRIVATKPLYVALAQRKEERQAYLTNEYMQRMASVRAVPNQRAPPSGYFMTAVPQTQNHAAYYPPSQIARLRPSPRWTAQGARPHPFQNKPSAIRPGAPRVPFSTMRPASSQVPRVMSTQRVANTSTQTVGPRPAAAAAAAATPAVRTVPRYKYAAGVRNPQQHRNAQPQVTMQQLAVHVQGQETLTASRLASAPPQKQKQMLGERLFPLIQAMHPTLAGKITGMLLEIDNSELLYMLESPESLRSKVDEAVAVLQAHQAKEATQKAVNSATGVPTV
B2: human EEF1A1; sequence looked up; chain GKEKTHINIVVIGHVDSGKSTTTGHLIYKCGGIDKRTIEKFEKEAAEMGKGSFKYAWVLDKLKAERERGITIDISLWKFETSKYYVTIIDAPGHRDFIKNMITGTSQADCAVLIVAAGVGEFEAGISKNGQTREHALLAYTLGVKQLIVGVNKMDSTEPPYSQKRYEEIVKEVSTYIKKIGYNPDTVAFVPISGWNGDNMLEPSANMPWFKGWKVTRKDGNASGTTLLEALDCILPPTRPTDKPLRLPLQDVYKIGGIGTVPVGRVETGVLKPGMVVTFAPVNVTTEVKSVEMHHEALSEALPGDNVGFNVKNVSVKDVRRGNVAGDSKNDPPMEAAGFTAQVIILNHPGQISAGYAPVLDCHTAHIACKFAELKEKIDRRSGKKLEDGPKFLKSGDAAIVDMVPGKPMCVESFSDYPPLGRFAVRDMRQTVAVGVIKAVDKKAAGAGKVTKSAQKAQKAK

Substance = colistin; target or system = Klebsiella pneumoniae; assay = broth microdilution; test system = ATCC 13883; measurement = MIC; result = 4 µg/mL
Substance = colistin; target or system = Staphylococcus aureus; test system = ATCC 25293, RPMI 1640 10% FBS; conditions = 18 to 24 h, 37 °C; measurement = MIC; result = 12.5 µM
Substance = B1 (human PABP3); target or system = CYB5R4 knockout human cells; assay = PP6 interaction, 3xFLAG-PP6C IP-MS; conditions = concentration not given; how to read = reference: CYB5R4 KO over parental; measurement = log2 fold change; result = -0.52
Substance = TCATCCGCTG (PNA, CPP-conjugated); target or system = Salmonella enterica serovar Typhimurium; test system = peptide, SL1344; conditions = 18 h; measurement = MIC; result = 2.5 µM
Substance = colistin; target or system = Pseudomonas aeruginosa; test system = clinical isolate RKI 67/14; measurement = MIC; result = ≤ 1 µg/mL
Substance = benzalkonium chloride; target or system = Staphylococcus aureus; test system = ATCC 33591 HA-MRSA; conditions = tested up to 1 µM; measurement = MIC; result = 4 µM
Substance = DAPT; target or system = Streptococcus pneumoniae; test system = ATCC 49619, wild type, CAMHB, lysed horse blood; measurement = MIC; result = 12.5 µg/mL
Substance = Polymyxin B; target or system = Staphylococcus aureus; assay = broth microdilution; test system = Newman (MSSA); measurement = MIC; result = > 32 µg/mL
Substance = B2 (human EEF1A1); target or system = PP6C (human); assay = co-immunoprecipitation, IP-MS; test system = CYB5R4 knockout cells; conditions = concentration not given; how to read = reference: CYB5R4 knockout over parental; measurement = log2 fold change; result = -0.25
Substance = azithromycin; target or system = Klebsiella pneumoniae; assay = broth microdilution; test system = ATCC 700603; conditions = without peptide; measurement = MIC; result = 10 µM
Substance = CTTTCATGCG (PNA, CPP-conjugated); target or system = Salmonella enterica serovar Typhimurium; test system = peptide, SL1344; conditions = 18 h; measurement = MIC; result = 10 µM
Substance = colistin; target or system = Pseudomonas aeruginosa; test system = PER-producing clinical isolate R13-94; measurement = MIC; result = 0.5 µg/mL
Substance = gentamicin sulfate; target or system = Staphylococcus aureus; test system = ATCC 35923, susceptible; conditions = 18 h, 37 °C, dark; measurement = MIC; result = 1 µM

A few entries again:
Substance = B2 (human EEF1A1); target or system = PP6C (human); assay = co-immunoprecipitation, IP-MS; test system = CYB5R4 knockout cells; conditions = concentration not given; how to read = reference: CYB5R4 knockout over parental; measurement = log2 fold change; result = -0.25
